Experimental data collected from several papers.
A part holds a random share of what one study measured. Several values in a cell are separate wells, animals, samples, runs or records.

Set 1
Structure (SMILES): COCC1CC2C(CCC3(C)C(O)CCC23)c2ccc(O)cc21 (centres unmarked)
Method: DNA microarray
Relative to: untreated cells
Endpoint: log2 fold change
PANC-1; measured: ADAMTS8; concentration not given, higher dose arm: -0.308
A549; measured: IL23R; concentration not given: 4.11
PANC-1; measured: CCL8; concentration not given, lower dose arm: 5.02
A549; measured: AURKA; 100 µM: -0.987
A549; measured: ORC1L; 50 µM: -0.529
PANC-1; measured: CCL11; concentration not given, lower dose arm: 0
SK-OV-3; measured: OLIG2; concentration not given, lower dose arm: 3.35
PANC-1; measured: DNER; concentration not given: 6.09
PANC-1; measured: CCL22; concentration not given, higher dose arm: 0
PANC-1; measured: MCM10; concentration not given, higher dose arm: -1.04
A549; measured: IL28A; 50 µM: 1.41
PANC-1; measured: GADD45A; concentration not given, higher dose arm: 0.351

Set 2
Cell line: MDA-MB-468
Effect on: cell viability
Method: CellCounting-Lite
Tested at: 0.9145 nM
Temperature: 37 °C
Reading: higher = more viable cells
Endpoint: luminescence signal
CCn1cnc2c(NCc3nc4cc(Cl)c(Cl)cc4[nH]3)nc(N3CCN(S(C)(=O)=O)CC3)nc21: 580000 a.u. and 528000 a.u. and 442000 a.u.
Cn1cc(-n2cnc3c(NCc4nc5cc(Cl)c(Cl)cc5[nH]4)nc(N4CCNCC4)nc32)cn1: 483000 a.u. and 570000 a.u. and 592000 a.u.
CC(=O)N1CCN(c2nc(NCc3nc4cc(Cl)c(Cl)cc4[nH]3)c3ncn(-c4cnn(C)c4)c3n2)CC1: 493000 a.u. and 533000 a.u. and 480000 a.u.
CCn1cnc2c(NCc3nc4cc(Cl)c(Cl)cc4[nH]3)nc(N3CCn4ncnc4C3)nc21: 450000 a.u. and 475000 a.u. and 563000 a.u.
CCn1cnc2c(NCc3nc4cc(F)c(F)cc4[nH]3)nc(N3CCn4ncnc4C3)nc21: 426000 a.u. and 450000 a.u. and 407000 a.u.
CC(=O)N1CCN(c2nc(NCc3nc4cc(Cl)c(Cl)cc4[nH]3)c3ncn(C(C)C)c3n2)CC1: 491000 a.u. and 504000 a.u. and 482000 a.u.
CCn1cnc2c(NCc3nc4cc(Cl)c(Cl)cc4[nH]3)nc(N3CCN(C(=O)c4ccccn4)CC3)nc21: 331000 a.u. and 421000 a.u. and 383000 a.u.
CCn1cnc2c(NCc3nc4cc(Cl)c(Cl)cc4[nH]3)nc(N3CCN(C(=O)c4ccccc4)CC3)nc21: 434000 a.u. and 457000 a.u. and 478000 a.u.
CCn1cnc2c(NCc3nc4ccc(F)c(F)c4[nH]3)nc(N3CCn4ncnc4C3)nc21: 450000 a.u. and 480000 a.u. and 438000 a.u.
CCn1cnc2c(NCc3nc4cc(Cl)c(Cl)cc4[nH]3)nc(N3CCN(C(C)=O)CC3)nc21: 436000 a.u. and 379000 a.u. and 430000 a.u.

Set 3
SMILES: CCN1/C(=C/C=C2\CCCC(/C=C/C3=[N+](CC)c4ccccc4C3(C)C)=C2NCCCCCCCCN2CCC(Nc3nc4ccccc4n3Cc3ccc(F)cc3)CC2)C(C)(C)c2ccccc21
Cell line: U-87 MG
Tested at: concentration not given
Relative to: DMSO
Endpoint: log2 fold change
measured: CSF1R mRNA: -2.42
measured: UBTD2 mRNA: 1.41
measured: LRP1B mRNA: 1.69
measured: ETV3 mRNA: 0.979
measured: ARHGAP31 mRNA: -0.974
measured: LRRN3 mRNA: -1.05
measured: RAB18 mRNA: 0.997
measured: THAP5 mRNA: 0.871
measured: SHCBP1 mRNA: -2.19
measured: TOM1 mRNA: 0.827
measured: INSYN2B mRNA: -2.03

Set 4
Cell line: Gaucher fibroblasts L444P/L444P
Method: 4-MUG hydrolysis, cell lysate
Tested at: 10 µM
Time: 72 h
Relative to: vehicle
Endpoint: GCase activity
Ic1ccc(Nc2nc(NCCN3CCOCC3)nc(N3CCSCC3)n2)cc1: 95%
Ic1ccc(Nc2nc(NCCN3CCOCC3)nc(N3CCNCC3)n2)cc1: 6%
Ic1ccc(Nc2nc(NCCc3c[nH]c4ccccc34)nc(N3CCOCC3)n2)cc1: 35%
Ic1ccc(Nc2nc(NCCN3CCOCC3)nc(N3CC4CC3CO4)n2)cc1 (centres unmarked): 107%
CCOc1ccc2nc(Sc3nc(Nc4ccc(I)cc4)nc(N4CCOCC4)n3)sc2c1: 226%

For quick reference, copied from above (set 1):
A549; measured: IL23R; concentration not given: 4.11
PANC-1; measured: CCL8; concentration not given, lower dose arm: 5.02
A549; measured: AURKA; 100 µM: -0.987
A549; measured: ORC1L; 50 µM: -0.529
PANC-1; measured: CCL11; concentration not given, lower dose arm: 0
